Published values collected from several papers.
Each numbered part is a random draw from the data of one study; scales do not carry over between parts. Several values in a cell are separate wells, animals, samples, runs or records.

Set 1
SMILES: C[C@@H]1CN(c2ccc(-c3cc(C(=O)NCCOCCOCCOCCOCCOCCOCCOCCOCCOCCNC(=O)/C=C/c4[nH]cc(C(=O)N[C@@H](CC(N)=O)c5ccc(F)c(Cl)c5)c4-c4ccc(Cl)cc4F)ccc3F)cc2NC(=O)c2c[nH]c(=O)cc2C(F)(F)F)C[C@H](C)N1C
Action: degrader
Time: 24 h
WDR5: WD repeat-containing protein 5 (WDR5, Homo sapiens, UniProt P61964)
WDR5/DCAF1: WDR5/DCAF1 (Homo sapiens, UniProt P61964+Q9Y4B6)
For WDR5; Jess capillary immunoassay, item: WDR5 over vinculin; 4.69 nM; reference: DMSO: “remaining protein level” read 94.1% and 95% and 101%.
WDR5/DCAF1; HiBiT luminescence; 3880 nM — “remaining protein level”: 22.7% and 24.8% and 29% and 28.2%.
For WDR5/DCAF1; HiBiT luminescence; 585 nM: “remaining protein level” read 29.5% and 28.1% and 26.3% and 34.1%.
WDR5; Jess capillary immunoassay, item: WDR5 over vinculin; 2 nM; reference: DMSO — “remaining protein level”: 96.9% and 112% and 101%.
It gave 80.3% and 89.6% and 90% and 73.4% for “remaining protein level” (WDR5/DCAF1; HiBiT luminescence; 13.3 nM).
WDR5; Jess capillary immunoassay, item: WDR5 over vinculin; 60.3 nM; reference: DMSO — “remaining protein level”: 64.8% and 60.7% and 74.9%.
The “remaining protein level” was 62.1% and 62% and 64.3% (WDR5; Jess capillary immunoassay, item: WDR5 over vinculin; 141 nM; reference: DMSO).

Set 2
Cell line: mouse MPNST tumor cells
Technique: high-content immunofluorescence imaging
Item: nuclear SOX9
Tested at: 10 µM
Time: 12 h
Setting: mean of 2 replicates
Reference: DMSO control
Reading: higher = more nuclear SOX9
Cc1ccc(S(=O)(=O)NC(=O)NN2CCCCCC2)cc1 — result for “nuclear SOX9 intensity”: 119 % of DMSO.
For C#C[C@]1(OC(C)=O)CC[C@H]2[C@@H]3CCC4=C[C@@H](OC(C)=O)CC[C@@H]4[C@H]3CC[C@@]21C, “nuclear SOX9 intensity” read 111 % of DMSO.
COc1cc(-c2cc(-c3cccc(O)c3)cnc2N)cc(OC)c1OC: “nuclear SOX9 intensity” 207 % of DMSO.
O=C(O)c1ccc(N2N=C(Cc3ccccc3)C(=Cc3ccc(-c4ccccc4F)o3)C2=O)cc1: “nuclear SOX9 intensity” 90.5 % of DMSO.
C#C[C@]1(O)CC[C@H]2[C@@H]3CCC4=CCCC[C@@H]4[C@H]3CC[C@@]21C — result for “nuclear SOX9 intensity”: 103 % of DMSO.
COc1cc(OC)cc(-c2noc(N3CCN(C)C4(CCN(c5ccnc(C)c5)CC4)C3)n2)c1 — result for “nuclear SOX9 intensity”: 193 % of DMSO and 232 % of DMSO.
Under “nuclear SOX9 intensity”, CCC1(C)CC(=O)NC1=O (stereo not shown) is recorded as 101 % of DMSO.
COc1cc2c(cc1OC)CN(CCc1ccc(NC(=O)c3cc(OC)c(OC)cc3NC(=O)c3cnc4ccccc4c3)cc1)CC2: “nuclear SOX9 intensity” 171 % of DMSO.
For CCOC(=O)Nc1ccc(NCc2ccc(F)cc2)nc1N, “nuclear SOX9 intensity” read 115 % of DMSO.
C[C@](N)(Cc1ccc(O)cc1)C(=O)O — result for “nuclear SOX9 intensity”: 93 % of DMSO.
Nc1ccc(S(=O)(=O)NC(=O)c2ccccc2)cc1: “nuclear SOX9 intensity” 89.8 % of DMSO.
Cc1cccc(Nc2ccccc2C(=O)O)c1C: “nuclear SOX9 intensity” 101 % of DMSO.
COC(=O)[C@H]1[C@H]2C[C@H]3c4[nH]c5ccccc5c4CCN3C[C@H]2CC[C@@H]1O — result for “nuclear SOX9 intensity”: 95.3 % of DMSO.
Under “nuclear SOX9 intensity”, CC[N+](CC)(CC(=O)Nc1c(C)cccc1C)Cc1ccccc1 is recorded as 92.8 % of DMSO.
CCO[C@@H](Cc1ccc(OCCc2ccc(OS(C)(=O)=O)cc2)cc1)C(=O)O: “nuclear SOX9 intensity” 108 % of DMSO.
Under “nuclear SOX9 intensity”, N=C(N)NC(=O)c1cnn(-c2cccc3ncccc23)c1C1CC1 is recorded as 111 % of DMSO.
CC(C)(C)c1ccc(C=CC(=O)Nc2ccc3c(c2)OCCO3)cc1: “nuclear SOX9 intensity” 124 % of DMSO.
For O=C(Nc1cc2cc[nH]c2cn1)c1ccccc1, “nuclear SOX9 intensity” read 94.8 % of DMSO.
For CN(CCc1ccc(Cl)c(Cl)c1)CC(O)COc1ccc(NS(C)(=O)=O)cc1 (stereo not shown), “nuclear SOX9 intensity” read 101 % of DMSO.

Set 3
Target: Anoctamin-1 (ANO1, Homo sapiens, UniProt Q5XXA6, del476-501)
Effect on: chloride current
Action: inhibitor
Tested at: 10 µM
Oc1c(Cl)cc(Cl)c(Cl)c1Cc1c(O)c(Cl)cc(Cl)c1Cl gave an inhibition of 31.8%.
For O=C(O)c1cc([N+](=O)[O-])ccc1NCCCc1ccccc1, the inhibition was 26%.
Oc1ccc(Cl)cc1Cc1cc(Cl)ccc1O has an inhibition of 41.8%.
C=CCc1ccc(O)c(-c2ccc(O)c(CC=C)c2)c1 has an inhibition of 58.5%.
For OC(c1cc(C(F)(F)F)nc2c(C(F)(F)F)cccc12)C1CCCCN1 (stereo not shown), the inhibition was 61.6%.
With C=CCc1ccc(O)c(-c2cc(CC=C)ccc2O)c1 the inhibition was 27.6%.
For CNCCC(Oc1ccc(C(F)(F)F)cc1)c1ccccc1 (stereo not shown), the inhibition was 57.1%.
With CC/C(=C(\c1ccccc1)c1ccc(OCCN(C)C)cc1)c1ccccc1 the inhibition was 21.6%.
For CCc1oc2ccccc2c1C(=O)c1cc(Br)c(O)c(Br)c1, the inhibition was 89.3%.
N#Cc1c(C(F)(F)F)cc(O)n2c1nc1ccccc12 gave an inhibition of 79.5%.
With O=S(=O)(O)c1cc(N=C=S)ccc1C=Cc1ccc(N=C=S)cc1S(=O)(=O)O the inhibition was 27.1%.
The inhibition of O=C(O)c1cccnc1Nc1cccc(C(F)(F)F)c1 is reported as 27.1%.
For O=C(Nc1ccc([N+](=O)[O-])cc1Cl)c1cc(Cl)ccc1O, the inhibition was 48.1%.

Set 4
Compound: CC1=C(C#N)C(c2ccc3c(c2)c(NC(=O)c2ccccc2C)nn3C)C(C#N)=C(C)N1
Technique: competition with immobilised ligand
Tested at: 1 µM
The remaining binding was 89% (EPHA6 (Homo sapiens, UniProt Q9UF33); cell-free assay).
It gave 100% for remaining binding (Tyrosine-protein kinase ABL1, non-phosphorylated (ABL1, Homo sapiens, UniProt P00519, Q252H); cell-free assay).
For CLK3 (Homo sapiens, UniProt P49761); cell-free assay: remaining binding read 94%.
It gave 77% for remaining binding (PDPK1 (Homo sapiens, UniProt O15530); cell-free assay).
Ribosomal protein S6 kinase alpha-1, N-terminal kinase domain (RPS6KA1, Homo sapiens, UniProt Q15418); cell-free assay — remaining binding: 100%.
The remaining binding was 67% (PAK3 (Homo sapiens, UniProt O75914); cell-free assay).
For MST1R (Homo sapiens, UniProt Q04912); cell-free assay: remaining binding read 95%.
For PRKCH (Homo sapiens, UniProt P24723); cell-free assay: remaining binding read 94%.
For NTRK1 (Homo sapiens, UniProt P04629); cell-free assay: remaining binding read 77%.
MAPK14 (Homo sapiens, UniProt Q16539); cell-free assay — remaining binding: 88%.
Tyrosine-protein kinase ABL1, phosphorylated (ABL1, Homo sapiens, UniProt P00519, F317L); cell-free assay — remaining binding: 91%.
Tyrosine-protein kinase ABL1, phosphorylated (ABL1, Homo sapiens, UniProt P00519, E255K); binding — remaining binding: 63%.
TSSK1B (Homo sapiens, UniProt Q9BXA7); cell-free assay — remaining binding: 100%.
MAP2K3 (Homo sapiens, UniProt P46734); cell-free assay — remaining binding: 91%.
It gave 84% for remaining binding (EGFR (Homo sapiens, UniProt P00533); cell-free assay).
For WNK2 (Homo sapiens, UniProt Q9Y3S1); cell-free assay: remaining binding read 75%.
ITK (Homo sapiens, UniProt Q08881); cell-free assay — remaining binding: 97%.
It gave 77% for remaining binding (Tyrosine-protein kinase JAK2, JH1 (JAK2, Homo sapiens, UniProt O60674); cell-free assay).
The remaining binding was 74% (RPS6KB1 (Homo sapiens, UniProt P23443); cell-free assay).
LCK (Homo sapiens, UniProt P06239); cell-free assay — remaining binding: 81%.
The remaining binding was 100% (FYN (Homo sapiens, UniProt P06241); cell-free assay).
MAP3K9 (Homo sapiens, UniProt P80192); cell-free assay — remaining binding: 96%.
It gave 75% for remaining binding (IRAK1 (Homo sapiens, UniProt P51617); cell-free assay).
The remaining binding was 99% (EPHA3 (Homo sapiens, UniProt P29320); cell-free assay).
It gave 100% for remaining binding (Ribosomal protein S6 kinase alpha-1, C-terminal kinase domain (RPS6KA1, Homo sapiens, UniProt Q15418); cell-free assay).

Repeated from above (set 2):
COc1cc(OC)cc(-c2noc(N3CCN(C)C4(CCN(c5ccnc(C)c5)CC4)C3)n2)c1 — result for “nuclear SOX9 intensity”: 193 % of DMSO and 232 % of DMSO.
Under “nuclear SOX9 intensity”, CCC1(C)CC(=O)NC1=O (stereo not shown) is recorded as 101 % of DMSO.
COc1cc2c(cc1OC)CN(CCc1ccc(NC(=O)c3cc(OC)c(OC)cc3NC(=O)c3cnc4ccccc4c3)cc1)CC2: “nuclear SOX9 intensity” 171 % of DMSO.
For CCOC(=O)Nc1ccc(NCc2ccc(F)cc2)nc1N, “nuclear SOX9 intensity” read 115 % of DMSO.
C[C@](N)(Cc1ccc(O)cc1)C(=O)O — result for “nuclear SOX9 intensity”: 93 % of DMSO.
Nc1ccc(S(=O)(=O)NC(=O)c2ccccc2)cc1: “nuclear SOX9 intensity” 89.8 % of DMSO.
Cc1cccc(Nc2ccccc2C(=O)O)c1C: “nuclear SOX9 intensity” 101 % of DMSO.
COC(=O)[C@H]1[C@H]2C[C@H]3c4[nH]c5ccccc5c4CCN3C[C@H]2CC[C@@H]1O — result for “nuclear SOX9 intensity”: 95.3 % of DMSO.
